Published values from different studies.
Each line is one published result; not all experiments were run side by side. ± gives the spread as reported.

| Compound | assay | system | conditions | tissue uptake |
| --- | --- | --- | --- | --- |
| O=C(NCC1OC2CCC=CCCC2O1)c1ccc([18F])nc1 (stereo not drawn) |  | female BALB/c nude mice, LS174T tumour, blood | intravenous, 60 min, together with: CC49-tetrazine 24 h before | 0.9 ± 0.2 %ID/g |
| N#C[C@@H]1CCCN1C(=O)CNC(=O)c1ccnc2ccc(OCCCN3CCN(C(=O)CCc4ccc5c(c4)CN4CCN(Cc6cc(CCC(=O)O)ccc6O)CC(=O)[O][Al-]([18F])([O]C(=O)C4)[O]5)CC3)cc12 (stereo partly drawn) |  | BALB/c nude mice, U-87 MG xenograft, brain | 1 h, blocking, together with: DOTA-FAPI-04 40 nmol/mouse co-injected | 0.05 ± 0.01 %ID/g |
| COc1ccc(Nc2nc(Nc3ccc(OCCOCCOCC[18F])cc3)ncc2Br)cc1 |  | ICR mice, S180 tumour-bearing, lung | intravenous, 370 kBq, 30 min | 4.86 ± 0.3 %ID/g |
| CCCC[C@H](NC(=O)COCCOCCNC(=O)CN1CCN(CC(=O)O)CCN(CC(=O)O)CC1)C(=O)N[C@H]1CC(=O)NCCCC[C@@H](C(N)=O)NC(=O)[C@H](Cc2c[nH]c3ccccc23)NC(=O)[C@H](CCCNC(=N)N)NC(=O)[C@@H](Cc2ccccc2)NC(=O)[C@H](Cc2c[nH]cn2)NC1=O [fluorine-18 labelled] |  | C57 mice B16-F10 melanoma, blood | intravenous, 0.37 MBq, 0.5 h | 1.96 ± 0.3 %ID/g |
| CCCC[C@H](NC(=O)CNC(=O)CNC(=O)[C@H](CCCCNC(=O)[C@H](CC(=O)O)NC(=O)C(C)c1ccc(CC(C)C)cc1)NC(=O)CN1CCN(CC(=O)O)CCN(CC(=O)O)CCN(CC(=O)O)CC1)C(=O)N[C@H]1CC(=O)NCCCC[C@@H](C(N)=O)NC(=O)[C@H](Cc2c[nH]c3ccccc23)NC(=O)[C@H](CCCNC(=N)N)NC(=O)[C@@H](Cc2ccccc2)NC(=O)[C@H](Cc2c[nH]cn2)NC1=O (stereo partly drawn) [lutetium-177 labelled] |  | C57 mice, tumour-bearing, bone | intravenous, 0.037 MBq, 4 h | 0.25 ± 0.08 %ID/g |
| COc1ccc2c(c1)C(C)(C)C(/C=C/C1=C(Oc3ccc(C(=O)NCCCCOc4cc(CN(Cc5ccccn5)Cc5ccccn5)cc(CN(Cc5ccccn5)Cc5ccccn5)c4)cc3)C(=C/C=C3/N(CCCCS(=O)(=O)[O-])c4ccc(OC)cc4C3(C)C)CCC1)=[N+]2CCCCS(=O)(=O)[O-].O=[N+]([O-])[O-].O=[N+]([O-])[O-].[99Tc+].[C-]#[O+].[C-]#[O+].[C-]#[O+].[Zn+2] |  | healthy BALB/c mice, adipose | 12 h | 0.19 %ID/g |
| Cc1cc(C)n(CCN(CCN)CCCCCCNC(=O)[C@@H](N)Cc2c[nH]c3ccccc23)n1.[99Tc+].[C-]#[O+].[C-]#[O+].[C-]#[O+] |  | BALB/c nude mice, A549 xenograft, stomach | intravenous, 15 min | 5.3 ± 1.91 %IA/g |
| O=C([O-])CN1CCN(CC(=O)[O-])CCN(CC(=O)NC[C@H]2CC[C@H](C(=O)N[C@H](Cc3cnc4ccccc4c3)C(=O)NCCCC[C@H](NC(=O)N[C@@H](CCC(=O)O)C(=O)O)C(=O)O)CC2)CCN(CC(=O)[O-])CC1.[64Cu+2] | ex vivo gamma counting | 22Rv1 tumour-bearing mice, bone | intravenous, 0.74 MBq, 2 h post-injection | 4.12 %ID/g |
| CC(C)C[C@H](NC(=O)[C@@H](CCCCNC(=O)[C@@H](Cc1ccccc1)NC(=O)CCCCCCCNC(=O)CN1CCN(CC(=O)O)CCN(CC(=O)O)CCN(CC(=O)O)CC1)NC(=O)[C@H](Cc1ccc(O)cc1)NC(=O)[C@H](CO)NC(=O)[C@H](Cc1c[nH]c2ccccc12)NC(=O)[C@H](Cc1c[nH]cn1)NC(=O)[C@@H]1CCC(=O)N1)C(=O)N[C@@H](CCCNC(=N)N)C(=O)N1CCC[C@H]1C(=O)NCC(N)=O [indium-111 labelled] | biodistribution | male athymic nude mice, DU-145 prostate cancer xenograft, brain | intravenous, 0.037 MBq, 4 h post-injection | 0.03 ± 0.03 %ID/g |

Some of these lines once more:
| Compound | assay | system | conditions | tissue uptake |
| --- | --- | --- | --- | --- |
| Cc1cc(C)n(CCN(CCN)CCCCCCNC(=O)[C@@H](N)Cc2c[nH]c3ccccc23)n1.[99Tc+].[C-]#[O+].[C-]#[O+].[C-]#[O+] |  | BALB/c nude mice, A549 xenograft, stomach | intravenous, 15 min | 5.3 ± 1.91 %IA/g |
